Assay results gathered from unrelated publications.
Compare with care: the assays were run in different laboratories.
Target: Serine/threonine-protein kinase Nek4 (NEK4, Homo sapiens, UniProt P51957)

| SMILES | test | system | setting | scale | endpoint | value |
| --- | --- | --- | --- | --- | --- | --- |
| CN1CCN(Cc2ccc(-c3ccc(CO[C@H]4CCC[C@@H]4NC(=O)c4cc(-c5cnn(C)c5)cnc4N)cc3)cc2)CC1 | enzyme activity, inhibitor |  | 0.1 µM |  | inhibition | 3% |
| CNC1C[S+]2CC[S+]3CC[S+](C1)[Ru-4]321([N]=C=S)[n]2c3ccc(OC)cc3c3c4c(c5cc(F)c[n+]1c5c32)C(=O)NC4=O (stereo not drawn) | KinomeScan |  | 0.1 µM | baseline: untreated | remaining binding | 100% |
| COc1cc(Nc2nc(C)cc(-c3cnn4nc(OC)ccc34)n2)cc(C(F)(F)F)c1 | inhibitor |  | 1 µM | baseline: control | remaining activity | 90% |
| Cc1cnc2nc1Nc1cccc(c1)COC/C=C/COCc1cc(ccc1OCCN1CCOCC1)N2 | binding |  | 0.1 µM |  | remaining binding | 100% |
| NC(=O)[C@@H](O)C[C@H]1CCc2sc3ncnc(O[C@H]4CC[C@H](N5CCOCC5)CC4)c3c21 | enzyme activity, inhibitor |  | 10 µM |  | inhibition | 0% |
| Nc1ncc2c(n1)-c1c([nH]c3ccc(C4=CCOCC4)cc13)CCC2 | binding, competition with immobilised ligand |  | 1 µM |  | remaining binding | 100% |
| C=CC(=O)Nc1cc(-c2nn(C3CCN(CCNC(=O)[C@H](C)CCC45CC6CC(CC(C6)C4)C5)CC3)c3ncnc(N)c23)ccc1Oc1ccccc1 | inhibitor, KiNativ profiling | biochemical | 2 µM |  | inhibition | 7.6% |
| O=C(Cc1ccc(OCc2ccccc2)cc1)NC1(C(=O)O)CCN(C(=O)c2ccc(-c3cccc(Cl)c3)cc2)CC1 | enzyme activity, inhibitor |  | 10 µM |  | activity vs control | 104% |
| COc1c(Cl)cccc1Nc1c(-c2ccncc2C#C[C@@]2(C)CCCN2C(=O)/C=C/CN(C)C)[nH]c2c1C(=O)NCC2 | binding, competition with immobilised ligand |  | 3 µM |  | remaining binding | 83% |
| Cc1ccc(-c2c(/C=C(\C#N)C(=O)NC(C)C)n(CCCO)c3ncnc(N)c23)cc1 | cell-free assay, competition with immobilised ligand |  | 1 µM |  | remaining binding | 94% |
| C=CC(=O)N1Cc2nc(-c3cc(-c4cc(Cl)cnc4Cl)c(F)cc3F)n(-c3ccncn3)c2C1 | cell-free assay, inhibitor |  | 1 µM |  | inhibition | 6.4% |
| CN1C[C@@H](c2c[nH]c3cc(Br)ccc23)NC[C@@H]1c1c[nH]c2cc(Br)ccc12 | enzyme activity, inhibitor |  | 10 µM |  | remaining activity | 105% |

For quick reference, copied from above:
| SMILES | test | system | setting | scale | endpoint | value |
| --- | --- | --- | --- | --- | --- | --- |
| C=CC(=O)N1Cc2nc(-c3cc(-c4cc(Cl)cnc4Cl)c(F)cc3F)n(-c3ccncn3)c2C1 | cell-free assay, inhibitor |  | 1 µM |  | inhibition | 6.4% |
